Measurements gathered from unrelated publications.
Each numbered part is a random draw from the data of one study; scales do not carry over between parts.

Study 1
Target: RNA binding protein fox-1 homolog 2, RRM domain, GST-SBP tag (RBFOX2, Homo sapiens, UniProt O43251-10, residues 100-194)
Method: RNA Bind-n-Seq
Molecule type: RNA
Sample: in vitro
Concentration: 365 nM
Setting: natural RNA segment, single round, ends assumed
Relative to: no-protein control
Reading: higher = stronger binding
Construct (chain): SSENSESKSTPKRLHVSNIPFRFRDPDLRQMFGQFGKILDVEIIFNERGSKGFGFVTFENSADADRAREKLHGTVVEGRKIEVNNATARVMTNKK
`GGGAGUUCUACAGUCCGACGAUCUCCUGCAGGAGCCUGUGGCAUAUUUCCAGCUGGGCAUGCUGAUCCUCCUUGAGACACAGAUGCCUGUGUGAGUCUCCGUUGAUACAAUUCUGAACCCCUCAGGUUCUCUGUGGAAUUCUCGGGUGCCAA`: “RBNS enrichment (R)” 1.2.
`GGGAGUUCUACAGUCCGACGAUCCCUUGACAUGAGGACCAGCAAGUUUAUUCUUUUCAUUUUCAGUGAUGUUGGGAAUGGACUGGGUUUUAAAAGGGAGCUUGAAGAGGGAAUGUUUGACAGUCACAGAAGGUUGGAAUUCUCGGGUGCCAA` — result for “RBNS enrichment (R)”: 1.04.
`GGGAGUUCUACAGUCCGACGAUCUGAUUAUGGUCAGAGACUUUCAACCCACCCCUUCCUGCCUACCCCUGGCUUUUCCUCACAAAGAAUGUCUAGACAAACAGCAGCUUAGUCUCCUGACACCUCUUGUGGGGUGGAAUUCUCGGGUGCCAA`: “RBNS enrichment (R)” 0.206.
For `GGGAGUUCUACAGUCCGACGAUCAUUCUCUAUUUUAAAUACUUUUAGUAUGUACUGUGUAUGACUCAUUACCAUUUUGAGGGGAUUUAUACAUAUUUUAGAUAAAAAAAGUUAAAUGCUCUUAUUUUUCCAACUGGAAUUCUCGGGUGCCAA`, “RBNS enrichment (R)” read 0.855.

Study 2
Target: Transcription factor Sp1 (SP1, Homo sapiens, UniProt P08047, residues 1-785, full length assumed)
Sequence of UniProt P08047 (whole entry, looked up): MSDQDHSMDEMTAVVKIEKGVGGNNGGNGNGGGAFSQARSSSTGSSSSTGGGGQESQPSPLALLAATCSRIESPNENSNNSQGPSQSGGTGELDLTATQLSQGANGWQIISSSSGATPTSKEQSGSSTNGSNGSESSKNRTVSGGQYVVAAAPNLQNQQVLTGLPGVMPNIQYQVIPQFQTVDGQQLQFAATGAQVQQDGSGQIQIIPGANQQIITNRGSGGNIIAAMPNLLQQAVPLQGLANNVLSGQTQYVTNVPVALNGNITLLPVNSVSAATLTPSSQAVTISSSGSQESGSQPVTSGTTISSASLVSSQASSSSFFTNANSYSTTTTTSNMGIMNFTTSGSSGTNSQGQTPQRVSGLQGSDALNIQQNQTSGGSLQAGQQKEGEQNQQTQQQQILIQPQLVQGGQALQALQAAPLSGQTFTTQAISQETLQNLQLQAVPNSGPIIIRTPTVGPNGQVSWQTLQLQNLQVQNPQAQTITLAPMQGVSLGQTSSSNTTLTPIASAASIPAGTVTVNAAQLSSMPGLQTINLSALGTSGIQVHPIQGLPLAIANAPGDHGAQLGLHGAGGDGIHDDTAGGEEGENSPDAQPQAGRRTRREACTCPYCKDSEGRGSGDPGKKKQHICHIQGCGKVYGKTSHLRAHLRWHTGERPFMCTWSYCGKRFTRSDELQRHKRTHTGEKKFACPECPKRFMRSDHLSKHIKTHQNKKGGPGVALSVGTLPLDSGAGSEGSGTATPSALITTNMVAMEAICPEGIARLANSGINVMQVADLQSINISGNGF
Method: protein-binding microarray
Molecule type: double-stranded DNA, one strand shown
Sample: in vitro
Concentration: not given
Setting: k-mer, scored over probes, only values ≥0.25
Reading: higher = stronger binding
With `GGGGGCGA` the E-score was 0.273.
For `TTATTGAA`, the E-score was 0.286.
`GCCTCCCC` gave an E-score of 0.446.
The E-score of `CGCCGCCC` is reported as 0.351.

Study 3
Target: Interferon regulatory factor 3, full length, phosphomimetic (IRF3, Homo sapiens, UniProt Q14653, residues 1-427, S386D/S396D/S398D/S402D/T404D/S405D)
Method: protein-binding microarray
Molecule type: double-stranded DNA, one strand shown
Sample: in vitro
Concentration: 2540 nM top
Setting: 60-bp whole probe
With: salmon DNA 0.4 mg/ml
Relative to: random background probes
Reading: higher = stronger binding
Residues (chain): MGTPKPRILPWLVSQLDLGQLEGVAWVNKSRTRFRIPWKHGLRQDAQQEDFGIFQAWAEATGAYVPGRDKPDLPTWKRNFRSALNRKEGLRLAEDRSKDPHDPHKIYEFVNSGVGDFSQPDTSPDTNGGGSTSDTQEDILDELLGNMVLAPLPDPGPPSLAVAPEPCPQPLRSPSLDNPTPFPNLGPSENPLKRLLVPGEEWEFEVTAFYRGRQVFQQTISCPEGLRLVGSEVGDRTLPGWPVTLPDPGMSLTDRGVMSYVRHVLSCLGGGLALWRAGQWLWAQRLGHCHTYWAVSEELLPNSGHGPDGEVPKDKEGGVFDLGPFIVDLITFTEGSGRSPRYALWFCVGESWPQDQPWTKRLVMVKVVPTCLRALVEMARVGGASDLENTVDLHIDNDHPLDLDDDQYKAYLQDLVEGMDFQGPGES
`GCCTAGCACCTAGATTTCAGTCTCGATTAGTGCTAGGTCTTGATTCGCTTGACGCTGCTG`: “fitted relative affinity” 2.36 z-score.
`GCCTAGCACGACGGTTTCGACTGTCGGGACGTGCTAGTCTTGATTCGCTTGACGCTGCTG` — result for “fitted relative affinity”: 2.53 z-score.
Under “fitted relative affinity”, `GCCTAGCACGATGGTTTCGACTATCGGGACGTGCTAGTCTTGATTCGCTTGACGCTGCTG` is recorded as 2.57 z-score.
For `GCCTAGCACTTAGATATGAGTATCGATTAGTGCTAGGTCTTGATTCGCTTGACGCTGCTG`, “fitted relative affinity” read 0.278 z-score.

Other studies, line by line
For `PhoQ, residues 284 288 289 292 302 303 TVTVVA`, the fold induction was 9.39 (PhoP, residues 12 14 15 18 19 TPWLV (Escherichia coli, UniProt P23836); Sort-seq, item: YFP reporter; E. coli; PhoQ-PhoP variant library, with: 10 µM Mg2+; relative to: high Mg2+ state, higher = stronger signaling).

A few entries again (study 2):
With `GGGGGCGA` the E-score was 0.273.
For `TTATTGAA`, the E-score was 0.286.
